Assay results from different studies.
Numbered parts are unrelated; each lists some results of a single study.

Set 1 — technique: protein-binding microarray; form: double-stranded DNA, one strand shown; sample: in vitro; tested at: not given; direction: higher = stronger binding
Target: Max dimerization protein 1, bHLH-zipper, MAX partner unstated (MXD1, Homo sapiens, UniProt Q05195, residues 56-136)
Setting: k-mer, scored over probes, only values ≥0.25
Residues (chain): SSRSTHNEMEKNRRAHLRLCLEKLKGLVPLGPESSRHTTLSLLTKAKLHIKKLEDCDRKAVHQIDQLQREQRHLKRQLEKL
Oligonucleotide	E-score
AACCCACC	0.269
CCCGCGCC	0.251
CATGGAAA	0.321
ATGACACG	0.283
AATGTGGA	0.253
GGCGGGCA	0.274
CCACATGC	0.451

Set 2 — technique: RNA Bind-n-Seq; form: RNA; sample: in vitro; tested at: 365 nM; baseline: no-protein control; direction: higher = stronger binding
Target: RNA binding protein fox-1 homolog 2, RRM domain, GST-SBP tag (RBFOX2, Homo sapiens, UniProt O43251-10, residues 100-194)
Setting: natural RNA segment, single round, ends assumed
All sequences stand within: GGGAGUUCUACAGUCCGACGAUC … UGGAAUUCUCGGGUGCCAA
Construct (chain): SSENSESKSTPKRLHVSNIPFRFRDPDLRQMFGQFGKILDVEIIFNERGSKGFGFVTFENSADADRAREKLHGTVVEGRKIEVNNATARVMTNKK
Oligonucleotide	RBNS enrichment (R)
CUACCUCUGAGAAAGAGGAAAAUGUAAUUAUUCACAGAGUUUCUCAAAAUGGCAUCUUUCCUCCCAAACUGGGAGCCAAAUUCUGCAGAAAUCAUGGACAGUAAAUGGUG	0.431
AUCUCUGGAUGUGCACUGUCAGUCAUGUGUCCACCAGGCCUCGAAUAUCAUAUGGGAAAUGUCAUAGUUAAAAACGUACAGCCAGGCCCGUGUGCUGUUAAUAGUGUGAA	0.412
AGCCAGGAUGCUCAGCAUUGGAAGACUGGUGUGUGAUGGCUGCUACCACCUCUCCCUGGACAGCAGCUAAGAGAAGACAGCAUCCCACGGACACAAGUAGAAAAAAGGAA	1.81
CCAAGCAAGGAUUUUGCACCGCAGCUGCUUGGAUGUAUUUAAACUCCUCAUGGUUCAGAUAGCUAUUUCUGAAUGUAUAUUUCAUGGCUUCAAAGCAGCUACUCAACUAA	0.64
GUAAGUAGCUUUCUGACUACAUUAUUUUCUGGUCACUUUUAAAGAAAGUUUACAACCUGUUCUGAAACUAUUUGUCUUUUCACUGGUUGUAAGUGUACCCCAAUCUCAGG	0.312
GGAUAUGAUGGAAGAAGUGCUUGAAAGAGAAUUUUAGCAGAUGGUACUUUUCUCAGUGACCUCUGGAAUAAAAGAACUGACUUUUGAUAGUUUUAAAAUUAAUCUUUGCA	2.45
AAGACGUGCUAAUUUAUUGUGGAAUUGGUAGUUUGCUUUUCAUGCCCCUGUCUUCCUUCUCAUGACCAUUUCCCCCUUUCUGUCUGGCUUGCAUUAUUGAUUUCCAGGAC	1.46
AGAUACAAGCUGCAGAGAAAAGUAAACUCUGCAAAGAACACUGGUAAUAAUUGUUCUGCAAAGGUUAAGAAAGCCACUGAGUCACAGUCUUCAUGGACUUUUGGGGUUUC	0.573

Set 3 — technique: RNA Bind-n-Seq; form: RNA; sample: in vitro; tested at: 200 nM; setting: whole 134-nt RNA, ends assumed; together with: 150 mM KCl; baseline: input library; direction: higher = stronger binding
Target: Fragile X messenger ribonucleoprotein 1, C-terminal low-complexity region (Fmr1, Mus musculus, UniProt P35922)
All sequences stand within: GGGAGUUCUACAGUCCGACGAUC … UGGAAUUCUCGGGUGUCAAGG
Oligonucleotide	log2 enrichment
CACAGACAACACGCACCCACACAGACACAGAGGGAAGGGGUUGGGAUGGGAACAGGGUGCACAGCAGGGCGGGGUAGGACCCCAGCCCCU	1.34
CACAGACAACACGCACCCACACAGACACAGAGGGAAGGGGUUGGGAUGGGGACAGGGUGCACAGCAGGGCGGGGAAGGACCCCAGCCCCU	1.26
AAGUCCUGUGCUACACAUCGUAUGUACCGAAUCGGUUUUUGGUUUGGAAAAAAAGGAAAGUAUUAUGUUACGCCGUUCGGAUCUGCACUU	-1.15
UCAAGUCCUGUGCUACACAUCGUAUGUACCGAAUCGGGAAGGGAAGGGAAGGGGAAAGUAUUAUGUUACGCCGUUCGGAUCUGCACUUCC	0.734
AAGUCCUGUGCUACACAUCGUAUGUACCGAAUCGGGCCCCGGCCCCGGGCCCCGGGAAAGUAUUAUGUUACGCCGUUCGGAUCUGCACUU	-0.856
CACAGACAACACGCACCCACACAGACACAGAGGGAAGGGGUUGGGAUGGGGACAGGGAGCACAGCAGGGCGGGGUAGGACCCCAGCCCCU	1.19
UGGCCCUGGUGGCAUGCGCGGAGGAAGAGGUGGCCUCAUGGAUCGUGGUGGUCCCGGUGGAAUGUUCAGAGGUGGCCGUGGUGGAGACAG	-0.0881
CACAGACAACACGCACCCACACAGACACAGAGGGAAGGGGUUGGGAUGGGGACAGGGUGCACAGCAAAGCGGGGUAGGACCCCAGCCCCU	1.28

Further values, each from its own experiment
Molecule	target	test	test system	conditions	how to read	quantity	result
PhoQ, residues 284 288 289 292 302 303 NLSRDF	PhoP, residues 12 14 15 18 19 AWHSL (Escherichia coli, UniProt P23836)	Sort-seq, refers to: YFP reporter	E. coli	PhoQ-PhoP variant library, together with: 10 µM Mg2+	baseline: high Mg2+ state, higher = stronger signaling	fold induction	4.99

Excerpt of the above (set 3):
Oligonucleotide	log2 enrichment
CACAGACAACACGCACCCACACAGACACAGAGGGAAGGGGUUGGGAUGGGGACAGGGUGCACAGCAGGGCGGGGAAGGACCCCAGCCCCU	1.26
AAGUCCUGUGCUACACAUCGUAUGUACCGAAUCGGUUUUUGGUUUGGAAAAAAAGGAAAGUAUUAUGUUACGCCGUUCGGAUCUGCACUU	-1.15
CACAGACAACACGCACCCACACAGACACAGAGGGAAGGGGUUGGGAUGGGGACAGGGAGCACAGCAGGGCGGGGUAGGACCCCAGCCCCU	1.19
